Experimental data gathered from unrelated publications.
Every numbered part comes from another study and shows a few of its results, in no order.

Sample 1 — method: aptamer microarray, sandwich; molecule type: DNA with 2'F-ANA; medium: in vitro; tested at: 200 nM; with: Cy3 exosite-II aptamer, 400 nM; direction: higher = stronger binding; endpoint: mean fluorescence intensity; sequence: GGTTGGTGTGGTTGG
Target: Prothrombin, mature alpha-thrombin (F2, Homo sapiens, UniProt P00734)
Setting: whole 15-mer aptamer, many near background
2'F-ANA at 3 6 8 9 10 13 14 15: 341 a.u.
2'F-ANA at 3 6 9 10 12: 534 a.u.
2'F-ANA at 3 4 6 7 9 11: 559 a.u.
2'F-ANA at 2 3 5 6 7 8 12 14: 55.3 a.u.
2'F-ANA at 3 4 5 7 10 11 12 14: 48.4 a.u.
2'F-ANA at 2 3 4 6 7 8 9 10 13 14 15: 145 a.u.
2'F-ANA at 2 5 6 7 9 12: 151 a.u.
2'F-ANA at 1 2 5 7 8 9 13: 52 a.u.

Sample 2 — method: EMSA with sequencing; molecule type: double-stranded DNA, one strand shown; medium: in vitro; tested at: 10 and 20 nM; reference: negative control set to 0; direction: higher = stronger binding; endpoint: normalised bound fraction
Target: Hepatocyte nuclear factor 3-alpha (Foxa1, Mus musculus, UniProt P35582, residues 1-468, full length assumed)
Setting: whole designed probe, mean of two concentrations, ends assumed
Target sequence (chain): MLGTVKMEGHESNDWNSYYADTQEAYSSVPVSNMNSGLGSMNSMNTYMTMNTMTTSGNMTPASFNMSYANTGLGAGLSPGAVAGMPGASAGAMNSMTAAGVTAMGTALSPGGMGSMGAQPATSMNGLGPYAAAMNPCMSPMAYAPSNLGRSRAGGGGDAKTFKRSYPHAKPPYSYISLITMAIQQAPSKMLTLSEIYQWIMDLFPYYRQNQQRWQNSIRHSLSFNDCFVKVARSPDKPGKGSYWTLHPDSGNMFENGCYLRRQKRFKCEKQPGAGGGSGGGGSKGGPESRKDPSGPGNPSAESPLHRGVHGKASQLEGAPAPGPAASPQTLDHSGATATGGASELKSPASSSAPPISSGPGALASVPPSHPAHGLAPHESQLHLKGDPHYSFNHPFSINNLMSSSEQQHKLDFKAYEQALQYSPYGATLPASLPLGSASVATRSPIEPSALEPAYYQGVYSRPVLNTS
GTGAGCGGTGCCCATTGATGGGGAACGATGTTAGCAATCAAAATACTTTTCAAAACATCTGAGTCTACAGAGGCTGATTTGAGCACATCCGGAGAATTGGGCTCCAAAAATATTAAAAGTAAACAGGGACATAAATTGTATGGATATATTATTCTAAATATTCCCATCTTTTCTCTGTTGCAAGTTTGTGAATGTGGGTGGAATGGGCTTATTAATGGATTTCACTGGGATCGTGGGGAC: 0.247 ratio
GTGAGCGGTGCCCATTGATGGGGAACCTCGGAATTTAGATACATTAACCAGCTTTTCAGCAAATGTCACTTACCATAAGTTAGTTATTGTTTGTTTGTTTTTTGGGTATGTCAATTATATGTAATCTTGGGGAAGCATTTCTAATTAATGTATTCATCAAATGTTATTTGTTTTAAAATAATTTTATTGTCCTTCATTACTAGGTTCTAAAATTGATATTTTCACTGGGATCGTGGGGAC: 0.499 ratio
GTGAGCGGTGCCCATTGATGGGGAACATCTTCCCCCTCTTCCTTGCCCCACCAGCTCACCTTCCCGGGTTATTTGCACAAAGGAAAATAAATAAAGCCGGCATTCGTTAACGCAGTTCTGGCGCAAACTGCTGTTTGCTCTGGATGAATCATGGTCCTTTGGCGACGCCAGGCTCCGGGAGAGCAAAGCACCGTGTCAGGGCCATGATCCGGGCTCGCCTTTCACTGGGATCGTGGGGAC: 0.377 ratio
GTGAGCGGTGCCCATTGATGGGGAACATCTTCCCCCTCTTCCTTGCCCCACCAGCTCACCTTCCCGGGTTATTTGCAGATAGGAAAATAAATAAAGCCGGCATTCGTTAACGCAGTTCACGCGCATACTGCTGTTTGCTCTGGATGAATCATGGTCCTTTGGCGACGCCAGGCTCCGGGAGAGCAAAGCACCGTGTCAGGGCCATGATCCGGGCTCGCCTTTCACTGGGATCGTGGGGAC: 0.343 ratio
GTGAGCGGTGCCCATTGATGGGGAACACCCCTGAACTTAAATAAAAGTTAACAAACCCCACAAATCCCTACATGAAAAGACAGGGCTAATTAGCTAATTGGTAGTAATACTATTAGCAGTGTTTACTGAGTGCTTGTATCAGCCAGACACTGGTCTCAGAGCTTGAGATGCTTTAGCTCATTAAGTTAATTGGCCCATGAGTTGGGTACCATTACTGCCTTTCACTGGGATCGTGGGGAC: 0.216 ratio
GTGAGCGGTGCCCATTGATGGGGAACATCTTCCCCCTCTTCCTTGCCCCACCAGCTCACCTTCCCGGGTTATTTGCAGATAGGAAAATAAATAAAGCCGGCATTCGTTAACCCTCTTCACGCGCATACTGCTGTTTGCTCTGGATGAATCATGGTCCTTTGGCGACGCCAGGCTCCGGGAGAGCAAAGCACCGTGTCAGGGCCATGATCCGGGGTGGCCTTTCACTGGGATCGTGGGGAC: 0.361 ratio
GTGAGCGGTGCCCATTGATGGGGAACAAAACAAACAAATAAAACAACTAGTATGGAAGCTAGAATAATGTGATGCACCATTACACCAAATATTCAGTCTTAACATGGTTTTTAATATTATGTAATCTTGGAAGGTATTGCCATTGTTCATATGATACAGAATCAATGGCACTCACAAGCATCTGAATATGTTGAAAAATGGCACCTTCAAATAAAAATTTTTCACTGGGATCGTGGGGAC: 0.404 ratio
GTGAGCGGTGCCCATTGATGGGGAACATCTTCCCCCTCTTCCTTGCCCCACCAGCTCACCTTCCCGGGTTGTTTACTTTGAGCAAAGTAAACAAAGCCGGCATTCGTTAACCCTCTTCTGGCGCAAACTGCCAAAGTAAACAGATGAATCATGGTCCTTTGGCGACGCCAGGCTCCGGGAGAGCAAAGCACCGTGTCAGGGCCATGATCCGGGGTGGCCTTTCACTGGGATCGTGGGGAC: 0.562 ratio

Sample 3 — method: RNA Bind-n-Seq; molecule type: RNA; medium: in vitro; tested at: 365 nM; reference: no-protein control; direction: higher = stronger binding; endpoint: RBNS enrichment (R)
Target: RNA binding protein fox-1 homolog 2, RRM domain, GST-SBP tag (RBFOX2, Homo sapiens, UniProt O43251-10, residues 100-194)
Setting: natural RNA segment, single round, ends assumed
Target sequence (chain): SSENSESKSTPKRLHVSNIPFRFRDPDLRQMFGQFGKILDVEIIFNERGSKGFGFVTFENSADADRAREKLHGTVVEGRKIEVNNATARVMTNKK
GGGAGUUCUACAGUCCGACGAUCUAGAAGGUAUGUUGACAAAUAAGCCUCUUAGGUUACAAAGGAGUUUGGGGGGAAAAAAAUAUCCAUUGUGAAAAUGAAAGUACAGCCUAGCUCACCUGGGGCCUCCCUGCUGGAAUUCUCGGGUGCCAA: 0.498
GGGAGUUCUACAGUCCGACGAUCCCAAACACUUGGGUUUGGUGACCCUGUCUUUCUUAUAUGACCCUACAAUAAACAUUUGAAGGCAGCAUAGGAUGGCAGACAGUAGGAACAUUGUUUCACUUGGCGGCAUGUGGAAUUCUCGGGUGCCAA: 0.484
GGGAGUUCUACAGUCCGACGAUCUCAUAUAUGUAGGCUCUGAAAUGUUGUGAUGCUUAUUGCUUCUGUAUUUCUUCUCUACUCCCUAGUCUUAAUGUUUAACCUUGAAUGCUAUUAACUUAAAUAGCCAUUGAUGGAAUUCUCGGGUGCCAA: 0.597
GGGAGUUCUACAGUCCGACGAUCUUCAGUUCCUUAGUCGUGUCUACUUACCUAGCAGUUUAGAAACUGUCAGUCAUGUAACUGGCAAGGAUCACAGCCCGGUUGGGUGGCAUUCUGUGCCUCUGGCUUGGCUGUGGAAUUCUCGGGUGCCAA: 0.212
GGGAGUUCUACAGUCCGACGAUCGGGGUAGCCGGAGAAGGGCCUCUGGAGCAGGUCUGGAGGGGCCAUGGGGAAGUCCUGGGUGUGGGGACACAGUCGGGUUGACCCAGGGCUGUCUCCCUCCAGAGCCUCCCUGGAAUUCUCGGGUGCCAA: 0.843
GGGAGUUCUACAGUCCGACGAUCCAAAUGCAAUGGCUCAGAACAAUUAAGCACUGCCUUUCGUCUUUCUUUGUAACUCACUUGGUAAAAGCAAAUGUCUUGUCUCCUUCAGUGGUUCUUUGAAGCUUAGUGAGUGGAAUUCUCGGGUGCCAA: 0.518
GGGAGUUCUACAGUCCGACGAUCUCGCUGUCCUGCUGUGUGAAUUCCCAGGUUGGCCUGGUGGCCAUGUCGCCUGCCCCCAGCACUCCUCUGUCUCUGCUCUUGCCUGCACCCUUCCUCCUCCUUUGCCUAGGUGGAAUUCUCGGGUGCCAA: 1.27
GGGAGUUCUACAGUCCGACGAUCUCUAAUAGGAAAGGAUUUCUUCUUUCUUUUUUAAAGAGUGGGUGGAUUUUCUCCCUUUUGUUUUGCUUUUAUUUUCAUGCUACUAACAUAUCUUCAGAAGGAAAUGGCAAUGGAAUUCUCGGGUGCCAA: 1.17

Other studies, line by line
CC(C)c1ccc(CNC(=O)CCCCNS(=O)(=O)c2ccccc2)cc1
remaining compound (human, microsomes or S9; 2 µM, 0.5 h): 26.7%

For quick reference, copied from above (sample 1):
2'F-ANA at 3 4 5 7 10 11 12 14: 48.4 a.u.
2'F-ANA at 2 3 4 6 7 8 9 10 13 14 15: 145 a.u.
2'F-ANA at 2 5 6 7 9 12: 151 a.u.
2'F-ANA at 1 2 5 7 8 9 13: 52 a.u.
